Experimental data collected from several papers.
Lines come from different studies, so protocols differ. Several values in a cell are separate wells, animals, samples, runs or records. ± marks the error that the study gave.
Genome polyprotein NS3 helicase domain: Genome polyprotein, NS3 helicase domain (Hepatitis C virus genotype 1b, UniProt Q9WMX2)
CALM1 Ca2+-bound N-lobe: Calmodulin-1, Ca2+-bound N-lobe (CALM1, Homo sapiens, UniProt P0DP23)
WD repeat-containing protein 91 WD40 domain, residues 392–747: WD repeat-containing protein 91, WD40 domain, residues 392–747 (Homo sapiens, UniProt A4D1P6)
T1: Broccoli RNA aptamer; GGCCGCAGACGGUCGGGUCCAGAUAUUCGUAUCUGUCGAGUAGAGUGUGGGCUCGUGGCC
UniProt O75477, sequence (whole entry, looked up): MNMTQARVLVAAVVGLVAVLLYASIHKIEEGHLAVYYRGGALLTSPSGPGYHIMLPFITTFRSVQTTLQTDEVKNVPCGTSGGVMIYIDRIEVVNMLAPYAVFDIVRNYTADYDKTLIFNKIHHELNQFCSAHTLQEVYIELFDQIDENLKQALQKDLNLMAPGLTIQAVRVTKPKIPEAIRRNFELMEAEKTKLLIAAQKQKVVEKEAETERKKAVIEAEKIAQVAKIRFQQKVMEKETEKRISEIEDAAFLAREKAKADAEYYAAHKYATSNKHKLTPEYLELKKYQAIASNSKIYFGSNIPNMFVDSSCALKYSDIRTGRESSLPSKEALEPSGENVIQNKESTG
UniProt P19801, sequence (whole entry, looked up): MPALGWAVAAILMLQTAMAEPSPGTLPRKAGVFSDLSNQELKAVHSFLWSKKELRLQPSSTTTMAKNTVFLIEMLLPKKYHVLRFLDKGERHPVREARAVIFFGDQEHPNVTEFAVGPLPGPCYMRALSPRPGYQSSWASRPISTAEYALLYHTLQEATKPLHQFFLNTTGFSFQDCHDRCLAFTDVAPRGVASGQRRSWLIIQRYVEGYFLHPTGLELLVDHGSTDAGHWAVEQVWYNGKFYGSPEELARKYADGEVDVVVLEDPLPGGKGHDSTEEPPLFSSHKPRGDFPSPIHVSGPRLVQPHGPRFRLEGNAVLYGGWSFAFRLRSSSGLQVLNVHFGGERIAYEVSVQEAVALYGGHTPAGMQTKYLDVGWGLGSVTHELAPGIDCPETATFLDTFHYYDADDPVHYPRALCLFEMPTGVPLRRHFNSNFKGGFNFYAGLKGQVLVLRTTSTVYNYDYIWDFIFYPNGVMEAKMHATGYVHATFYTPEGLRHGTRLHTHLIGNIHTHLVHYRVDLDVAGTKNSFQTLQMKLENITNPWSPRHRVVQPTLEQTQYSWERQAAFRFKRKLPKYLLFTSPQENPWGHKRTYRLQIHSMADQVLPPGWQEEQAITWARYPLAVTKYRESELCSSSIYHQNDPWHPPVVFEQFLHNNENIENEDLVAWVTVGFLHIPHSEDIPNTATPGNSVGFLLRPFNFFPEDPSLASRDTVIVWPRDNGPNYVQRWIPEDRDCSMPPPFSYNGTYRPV
UniProt O76090, sequence (whole entry, unmodified, looked up): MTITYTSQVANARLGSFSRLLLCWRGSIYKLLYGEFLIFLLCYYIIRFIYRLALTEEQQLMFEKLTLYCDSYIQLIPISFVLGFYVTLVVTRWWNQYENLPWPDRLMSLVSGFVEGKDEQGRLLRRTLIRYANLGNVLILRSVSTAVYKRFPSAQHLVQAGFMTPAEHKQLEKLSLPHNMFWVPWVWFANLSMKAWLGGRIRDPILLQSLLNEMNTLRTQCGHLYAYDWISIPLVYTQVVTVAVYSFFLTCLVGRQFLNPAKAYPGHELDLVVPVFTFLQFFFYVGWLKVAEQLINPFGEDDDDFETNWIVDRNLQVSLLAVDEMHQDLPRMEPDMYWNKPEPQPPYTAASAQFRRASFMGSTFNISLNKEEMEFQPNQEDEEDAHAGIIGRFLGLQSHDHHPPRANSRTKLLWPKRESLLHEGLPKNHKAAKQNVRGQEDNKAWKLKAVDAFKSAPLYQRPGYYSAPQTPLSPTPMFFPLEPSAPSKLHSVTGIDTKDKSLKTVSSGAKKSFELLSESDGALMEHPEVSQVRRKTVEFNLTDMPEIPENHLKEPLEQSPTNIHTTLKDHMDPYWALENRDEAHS
UniProt P35462, sequence (whole entry, looked up): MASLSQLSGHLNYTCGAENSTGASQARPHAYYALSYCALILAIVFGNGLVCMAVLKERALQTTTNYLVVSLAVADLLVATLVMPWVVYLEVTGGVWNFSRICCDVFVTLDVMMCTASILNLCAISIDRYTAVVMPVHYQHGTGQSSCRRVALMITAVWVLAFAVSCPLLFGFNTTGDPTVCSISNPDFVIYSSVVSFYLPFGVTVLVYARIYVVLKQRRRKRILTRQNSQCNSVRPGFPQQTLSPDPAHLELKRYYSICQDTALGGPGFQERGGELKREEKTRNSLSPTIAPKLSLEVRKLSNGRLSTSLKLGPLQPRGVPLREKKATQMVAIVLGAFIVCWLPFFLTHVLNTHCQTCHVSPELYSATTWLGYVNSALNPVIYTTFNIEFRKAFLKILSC

COCCOC(=O)NC1CCN(c2ncnc3c2nc(-c2ccccc2Cl)n3-c2ccc(Cl)cc2)CC1
Ke (CNR1 (Homo sapiens, UniProt P21554); antagonist, FLIPR calcium mobilisation; CHO-K1 expressing CNR1 and Gαq16; added: CP55940): 6 nM

CC1=N/C(=C\c2cc(F)c(O)c(F)c2)C(=O)N1CC(F)(F)F
binding (T1, Broccoli RNA aptamer; fluorescence turn-on): binds

Nc1ncnc2c1ncn2[C@@H]1O[C@H](COP(=O)(O)CP(=O)(O)OP(=O)(O)O)[C@@H](O)[C@H]1O
calcium influx (P2X purinoceptor 1 (P2RX1, Homo sapiens, UniProt P51575, D170A); calcium influx; 31.6 µM; baseline: ionomycin response): 100%

NC(=O)C1=CN([C@@H]2O[C@H](COP(=O)(O)OP(=O)(O)OC[C@H]3O[C@@H](n4cnc5c(N)ncnc54)[C@H](O)[C@@H]3O)[C@@H](O)[C@H]2O)C=CC1
Km (FSP1 L323A mutant; substrate; added: 100 µM co-substrate): 45.2 ± 6.9 µM

CNC(=O)[C@H]1O[C@@H](n2cnc3c(NCc4cccc(I)c4)nc(Cl)nc32)[C@H](O)[C@@H]1O
inhibition (Genome polyprotein NS3 helicase domain; DNA binding, inhibitor; hepatitis C virus; 100 µM, added: Cy5-dT15 DNA): 1%

COc1cc(/C=C/c2ccc(O)cc2)cc(OC)c1
ΔG of binding (O-methyltransferase (Sorghum bicolor, UniProt A0A1B6PFV1); isothermal titration calorimetry; concentration not given, apo protein): -7.74 kcal/mol

CCN1CCCC1CNC(=O)c1cc(S(N)(=O)=O)ccc1OC (stereo not drawn)
maximal inhibition (DRD3 (Homo sapiens, UniProt P35462); β-arrestin recruitment, antagonist, BRET): 98 ± 2%

OC(CCN1CCCCC1)(c1ccccc1)C1CCCCC1 (stereo not drawn)
inhibition (Genome polyprotein NS3 helicase domain; 100 µM): 0%

NC/C(=C\F)COc1cccc(Cn2c(=S)[nH]c(=O)c3[nH]cnc32)c1
enzyme activity (AOC1 (Homo sapiens, UniProt P19801); substrate turnover, DAO oxidation; concentration not given, unit not given; baseline: DMSO control): 0.9 and 0.91 and 0.92 and 0.85 and 0.88

O=c1nc(SCc2cc(F)cc(C(F)(F)F)c2)nc(SCc2ccc3sccc3c2)[nH]1
ATP hydrolysis rate (TOP2A (Homo sapiens, UniProt P11388); ATPase activity; 15.6 µM, added: ATP 0.075 mM): 0.29 µM/min and 0.218 µM/min

COc1cc(/C=C/c2cc(/C=C/c3ccc(O)c(OC)c3)n(-c3ccc(Cl)cc3Cl)n2)ccc1O
binding stoichiometry (haemin; isothermal titration calorimetry; concentration not given, pH 7.4, 37 °C): 0.5 ± 0.2

CCCCCCCCCCC/C=C\C(C)(C)/C=C\CCCC(=O)O
inhibition (Genome polyprotein NS3 helicase domain; DNA binding, inhibitor; hepatitis C virus; 100 µM, added: Cy5-dT15 DNA): 0%

CCCCCCCC/C=C\CCCCCCCC(=O)NCCc1ccc(O)c(O)c1
Hill coefficient (Trpv1 (Mus musculus, UniProt Q704Y3, Y555F); ion current, agonist, whole-cell patch clamp; Y555F): 1.56 ± 0.59

O=C1O/C(=C/Br)CCC1c1cccc2ccccc12 (stereo not drawn)
inhibition (Genome polyprotein NS3 helicase domain; DNA binding, inhibitor; hepatitis C virus; 100 µM, added: Cy5-dT15 DNA): 0%

N[C@@H](CC(=O)O)C(=O)O
product formation (N-alpha-acetyltransferase 80 (NAA80, Homo sapiens, UniProt Q93015); substrate, DTNB; 2 mM, 30 min, 37 °C, added: acetyl-CoA 500 µM): 0.66 µM

CC1(C)C(/C=C/C=C2/N(CCCc3ccccc3)c3ccc4ccccc4c3C2(C)C)=[N+](CCCc2ccccc2)c2ccc3ccccc3c21.[Br-]
Hill coefficient (PRMT3 (Homo sapiens, UniProt O60678); inhibitor, filter binding; added: R4 peptide substrate): 1.98

Nc1ccc(C(=O)O)cc1
current density (BEST1, with wild-type BEST1 (Homo sapiens, UniProt O76090, D302A); ion current, whole-cell patch clamp; HEK293 co-expressing mutant and wild-type; concentration not given, voltage -100 mV): -7.71 pA/pF and -16.3 pA/pF and -18 pA/pF and -14.4 pA/pF and -7.93 pA/pF and -27.9 pA/pF

O=S(=O)(c1cccc(-c2ccccc2)c1)N1CCc2ccc(OCc3c(F)cccc3Cl)cc21
maximum fold change (RORC (Homo sapiens, UniProt P51449); reporter gene, agonist, GAL4 luciferase reporter; added: ursolic acid 2 µM; baseline: DMSO): 7.8 ± 2.1

O=c1c(O)c(-c2ccc(O)c(O)c2)oc2cc(O)ccc12
selectivity ratio (Estrogen receptor (ESR1, Homo sapiens, UniProt P03372); array formation; PRL-HeLa; baseline: EC50 ERβ over EC50 ERα): 0.313

CC[C@H](C)[C@@H]1NC(=O)[C@H](C)NC(=O)[C@H]([C@@H](C)CC)NC(=O)[C@H](CCC(N)=O)NC(=O)[C@H](C)NC(=O)[C@H](CCCNC(=N)N)NC(=O)[C@H](C(C)C)NC(=O)[C@H](CC(C)C)NC(=O)[C@H](CCC(=O)O)NC(=O)[C@H](CCCNC(=N)N)NC(=O)CNC(=O)[C@@H](NC(=O)[C@H](CC(C)C)NC(=O)[C@H](CCCCN)NC(=O)[C@@H](NC(=O)[C@@H](NC(=O)[C@H](CCC(=O)O)NC(=O)[C@H](CCC(=O)O)NC(=O)[C@H](CCSC)NC(=O)[C@H](Cc2c[nH]c3ccccc23)NC(=O)[C@H](CO)NC(=O)[C@@H](N)CC(=O)O)C(C)C)[C@@H](C)CC)CSSC[C@@H]2NC(=O)[C@@H](NC(=O)[C@H](CCCCN)NC(=O)[C@H](CC(N)=O)NC(=O)[C@H](C)NC(=O)[C@H](CC(C)C)NC(=O)[C@H](C)NC(=O)[C@H](CO)NC(=O)[C@H](Cc3ccc(O)cc3)NC(=O)[C@H](CC(C)C)NC(=O)[C@H](CCC(N)=O)NC(=O)c3ccc(-c4c5ccc(=[N+](C)C)cc-5oc5cc(N(C)C)ccc45)c(C(=O)[O-])c3)CSSC[C@H](NC(=O)CNC(=O)[C@H](C(C)C)NC(=O)[C@H](Cc3c[nH]cn3)NC2=O)C(=O)N[C@@H]([C@@H](C)O)C(=O)N[C@@H](CCCCN)C(=O)N[C@@H](CCCNC(=N)N)C(=O)N[C@@H](CO)C(=O)N[C@@H](CC(C)C)C(=O)N[C@@H](C)C(=O)N[C@@H](CCCNC(=N)N)C(=O)N[C@@H](Cc2ccccc2)C(=O)N[C@H](C(=O)O)CSSC[C@@H](C(=O)NCC(=O)N[C@@H](CCSC)C(=O)N[C@@H](CO)C(=O)N[C@H](C(=O)N[C@@H](Cc2c[nH]c3ccccc23)C(=O)N[C@@H](CO)C(=O)O)[C@@H](C)O)NC1=O
fast dissociation fraction (Relaxin receptor 1 (RXFP1, Homo sapiens, UniProt Q9HBX9); binding, NanoBRET; concentration not given, added: relaxin 10 µM): 18.6%

CCCCCCCC(=O)c1cc(OC)c(OC)c(OC)c1CC(=O)OCC
activation (Nuclear receptor subfamily 4 group A member 3, ligand-binding domain (Homo sapiens, UniProt Q92570); reporter gene, Gal4 hybrid reporter; 10 µM; baseline: vehicle): 0.91 fold

CN1C(=O)C(c2c(-c3ccc(Cl)cc3)[nH]c3c2c(=O)[nH]c(=O)n3C)c2ccccc21 (stereo not drawn)
SPR response (WD repeat-containing protein 91 (Homo sapiens, UniProt A4D1P6); binding, SPR steady state; 1.875 µM): 16.2 RU

Cn1c(=O)c2[nH]cnc2n(C)c1=O
potentiation (Glutamate receptor 2 (Homo sapiens, UniProt P42262); ion current, positive allosteric modulator, SyncroPatch patch clamp; HEK293; 30 µM): 100%

CC[C@H](C)[C@H](NC(=O)[C@H](CCCCN)NC(=O)CNC(=O)[C@@H](NC(=O)[C@@H](NC(=O)[C@H](CCSC)NC(=O)[C@H](Cc1c[nH]cn1)NC(=O)CN)[C@@H](C)O)C(C)C)C(=O)N[C@@H](Cc1ccc(O)cc1)C(=O)N[C@@H](C)C(=O)N[C@@H](C)C(=O)N[C@@H](CCSC)C(=O)N[C@@H](CCSC)C(=O)N[C@H](C(=O)N[C@@H](CCSC)C(=O)N[C@@H](CCC(=O)O)C(=O)N[C@@H](Cc1ccc(O)cc1)C(=O)N[C@@H](C)C(=O)N[C@@H](CCCNC(=N)N)C(=O)N[C@@H](CCC(N)=O)C(=O)N[C@@H](CO)C(=O)N[C@@H](CCCCN)C(=O)N[C@@H](C)C(=O)N[C@@H](CCCCN)C(=O)N[C@@H](CCCCN)C(=O)N[C@@H](CC(C)C)C(=O)N[C@@H](CCC(N)=O)C(=O)N[C@@H](C)C(=O)N[C@@H](CCSC)C(=O)N[C@@H](CCCNC(=N)N)C(=O)O)[C@@H](C)CC
stoichiometry (CALM1 Ca2+-bound N-lobe; binding, isothermal titration calorimetry; pH 7.4, 15 °C, N-lobe, CaV2.1 IQ domain, added: Ca2+): 0.88 ± 0.09

CCN(CC)CCOc1ccc2c(c1)C(=O)c1cc(OCCN(CC)CC)ccc1-2
curve top (ACHE (Homo sapiens, UniProt P22303); enzyme activity): 99 % inhibition

COc1ccc(-c2cncc(C(=O)N[C@@H]3CCc4c(C#N)cccc43)c2)c(C)c1
SPR response (WD repeat-containing protein 91 WD40 domain, residues 392–747; binding, SPR single-concentration screen; 45 µM): 32.3 RU and 31.5 RU

COc1cc(CC(=O)O)ccc1O
inhibition (Genome polyprotein NS3 helicase domain; DNA binding, inhibitor; hepatitis C virus; 100 µM, added: Cy5-dT15 DNA): 1%

O=C(COP(=O)(O)O)[C@@H](O)[C@H](O)[C@H](O)COP(=O)(O)O
thermal stability ratio (Erlin-1 (Homo sapiens, UniProt O75477); thermal proteome profiling; HepG2 cell lysate; concentration not given, 57 over 37 °C; baseline: compound over control): 1 and 11.6 and 0.607

O=C(CCl)Nc1ccc2c(c1)OCCO2
FP signal (14-3-3 protein sigma, with ERα phosphopeptide (SFN, Homo sapiens, UniProt P31947); binding, fluorescence polarization; covalent ligand screen, added: phosphorylated ERalpha peptide; baseline: control): 99.3%

COc1ccc(Cl)cc1C(=O)NCCc1ccc(S(=O)(=O)NC(=O)NC2CCCCC2)cc1
inhibition (Genome polyprotein NS3 helicase domain; DNA binding, inhibitor; hepatitis C virus; 100 µM, added: Cy5-dT15 DNA): 1%

CC[C@H](C)[C@H](NC(=O)[C@H](CCSC)NC(=O)[C@H](CCSC)NC(=O)[C@H](C)NC(=O)[C@H](C)NC(=O)[C@H](Cc1ccc(O)cc1)NC(=O)[C@H](C)NC(=O)[C@H](CCCCN)NC(=O)CNC(=O)[C@@H](NC(=O)[C@@H](NC(=O)[C@H](CCSC)NC(=O)[C@H](Cc1c[nH]cn1)NC(=O)CN)[C@@H](C)O)C(C)C)C(=O)N[C@@H](CCSC)C(=O)N[C@@H](CCC(=O)O)C(=O)N[C@@H](Cc1ccc(O)cc1)C(=O)N[C@@H](Cc1ccc(O)cc1)C(=O)N[C@@H](CCCNC(=N)N)C(=O)N[C@@H](CCC(N)=O)C(=O)N[C@@H](CO)C(=O)N[C@@H](CCCCN)C(=O)N[C@@H](C)C(=O)N[C@@H](CCCCN)C(=O)N[C@@H](CCCCN)C(=O)N[C@@H](CC(C)C)C(=O)N[C@@H](CCC(N)=O)C(=O)N[C@@H](C)C(=O)N[C@@H](CCSC)C(=O)N[C@@H](CCCNC(=N)N)C(=O)O
ΔS (CALM1 Ca2+-bound N-lobe; binding, isothermal titration calorimetry; pH 7.4, 15 °C, N-lobe, CaV2.1 IQ domain, added: Ca2+): 23.2 ± 0.4 cal/mol/K

CN1CCc2ccc(C(=O)N3CCN(C(=O)C4CCC(C#N)CC4)CC3)cc2C1 (stereo not drawn)
binding (WD repeat-containing protein 91 WD40 domain, residues 392–747; SPR; 45 µM): -6% and -10%

O=C(C[C@@H](C(F)F)n1ccc(F)n1)N1CCC(O)(Cn2cnc3c(cnn3-c3ccc(F)cc3)c2=O)CC1
IC50 ratio (USP7 (Homo sapiens, UniProt Q93009, V517F); enzyme activity, inhibitor, Ub-AMC; baseline: V517F over wild type): 2340

A few entries again:
OC(CCN1CCCCC1)(c1ccccc1)C1CCCCC1 (stereo not drawn)
inhibition (Genome polyprotein NS3 helicase domain; 100 µM): 0%

Nc1ncnc2c1ncn2[C@@H]1O[C@H](COP(=O)(O)CP(=O)(O)OP(=O)(O)O)[C@@H](O)[C@H]1O
calcium influx (P2X purinoceptor 1 (P2RX1, Homo sapiens, UniProt P51575, D170A); calcium influx; 31.6 µM; baseline: ionomycin response): 100%
